Experimental data from different studies.
Each line is one published result; not all experiments were run side by side. Converted amounts (≈) assume the structure as drawn.
Chain of UniProt Q14164 (whole entry, looked up): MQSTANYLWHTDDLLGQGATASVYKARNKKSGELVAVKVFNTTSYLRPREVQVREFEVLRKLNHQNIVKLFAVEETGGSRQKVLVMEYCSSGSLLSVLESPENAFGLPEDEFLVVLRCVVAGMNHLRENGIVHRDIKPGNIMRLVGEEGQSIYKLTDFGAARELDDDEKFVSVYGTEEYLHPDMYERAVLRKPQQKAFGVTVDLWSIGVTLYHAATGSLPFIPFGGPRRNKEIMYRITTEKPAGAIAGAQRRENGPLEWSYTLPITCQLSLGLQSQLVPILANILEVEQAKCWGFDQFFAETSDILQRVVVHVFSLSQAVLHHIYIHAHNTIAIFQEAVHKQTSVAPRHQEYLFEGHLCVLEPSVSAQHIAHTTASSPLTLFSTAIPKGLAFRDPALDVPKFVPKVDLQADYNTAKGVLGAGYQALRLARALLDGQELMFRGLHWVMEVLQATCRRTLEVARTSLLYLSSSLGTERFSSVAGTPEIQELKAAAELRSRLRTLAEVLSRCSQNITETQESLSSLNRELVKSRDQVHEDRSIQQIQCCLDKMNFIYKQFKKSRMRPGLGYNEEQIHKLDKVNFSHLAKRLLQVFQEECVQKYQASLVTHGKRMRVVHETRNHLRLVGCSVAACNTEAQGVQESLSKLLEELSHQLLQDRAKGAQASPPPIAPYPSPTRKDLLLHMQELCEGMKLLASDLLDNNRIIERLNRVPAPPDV

| SMILES | target or system | assay | system | conditions | quantity | result |
| --- | --- | --- | --- | --- | --- | --- |
| C#Cc1ccc(C(=O)NN=Cc2c(O)cccc2C#C)cc1 | Candida albicans | microbial growth |  | pH 7.4 | MIC80 | > 32 µg/mL |
| [2H]c1c([2H])c([C@]2([2H])CCCN2C(=O)C(C)(C)Oc2ccc3cn[nH]c3c2)c([2H])c([2H])c1C([2H])([2H])[2H] | IKBKE (Homo sapiens, UniProt Q14164) | binding, competition with immobilised ligand |  | 1 µM | remaining binding | 81% |
| Cc1[nH]c(C)c(-c2ccc(OCCn3cnc(Cl)c3Cl)cc2)c(=O)c1Br | PFF0160c (Plasmodium falciparum, UniProt Q08210) | enzyme activity, inhibitor, absorbance |  |  | IC50 | 1210 nM |
| C[C@@H]1C[C@@H]([C@H](O)CC2CC(=O)NC(=O)C2)C(=O)[C@@H](C)C1 | Candida albicans | microbial growth, broth dilution | ATCC10 ATCC10231 |  | MIC | 14 µg/mL (≈ 49.8 µM) |
| C[C@@H]1[C@H](O)[C@@H](C)/C=C/C=C/C=C/C=C/C=C/C=C/C=C/[C@H](O[C@@H]2O[C@H](C)[C@@H](O)[C@H](N)[C@@H]2O)C[C@@H]2O[C@](O)(C[C@@H](O)C[C@@H](O)[C@H](O)CC[C@@H](O)C[C@@H](O)CC(=O)O[C@H]1C)C[C@H](O)[C@H]2C(=O)O | Candida albicans | microbial killing, broth dilution | 56214 | 48 h | MFC | 2 µM |
| Cc1cc(Nc2ccc(C)c(Cl)c2)n2ncnc2n1 | PFF0160c (Plasmodium falciparum, UniProt Q08210, E182D) | enzyme activity, inhibitor, absorbance |  |  | IC50 | 3160 nM |
| C#Cc1ccc(C=NNC(=O)c2cc(Br)cc(Br)c2O)c(O)c1 | Candida albicans | microbial growth |  | pH 7.4 | MIC80 | 2 µg/mL |
| OC(Cn1cncn1)(Cn1cncn1)c1ccc(F)cc1F | Candida albicans | microbial killing, broth dilution | SP3931 | 48 h | MFC | > 64 µM |
| Cc1c2ccncc2c(C)c2c1[nH]c1ccccc12 | Candida albicans | microbial growth, broth dilution | SN152 | 24 h | MIC | 128 µg/mL (≈ 520 µM) |
| O=C(/C=C/c1ccco1)Nc1ncccn1 | Candida albicans | microbial growth |  | 48 h | MIC80 | 25 µM |
| C[C@@H]1C[C@@H]([C@H](O)CC2CC(=O)NC(=O)C2)C(=O)[C@@H](C)C1 | Candida albicans | microbial growth, broth dilution | ATCC10231 |  | MIC | 3.12 µg/mL (≈ 11.1 µM) |
| C#Cc1cccc(O)c1C=NNC(=O)c1ccc(Br)cc1Br | Candida albicans | microbial growth |  | pH 7.4 | MIC80 | 0.5 µg/mL |
| CC[C@H](C)C[C@H](C)CCCCCCCCC(=O)N[C@H]1C[C@@H](O)[C@@H](NCCN)NC(=O)[C@@H]2[C@@H](O)CCN2C(=O)[C@H]([C@H](O)CCN)NC(=O)[C@H]([C@H](O)[C@@H](O)c2ccc(O)cc2)NC(=O)[C@@H]2C[C@@H](O)CN2C(=O)[C@H]([C@@H](C)O)NC1=O | Candida albicans | microbial killing, broth dilution | ATCC10231 | 48 h | MFC | 2 µg/mL |

For quick reference, copied from above:
| SMILES | target or system | assay | system | conditions | quantity | result |
| --- | --- | --- | --- | --- | --- | --- |
| C#Cc1ccc(C=NNC(=O)c2cc(Br)cc(Br)c2O)c(O)c1 | Candida albicans | microbial growth |  | pH 7.4 | MIC80 | 2 µg/mL |
| Cc1[nH]c(C)c(-c2ccc(OCCn3cnc(Cl)c3Cl)cc2)c(=O)c1Br | PFF0160c (Plasmodium falciparum, UniProt Q08210) | enzyme activity, inhibitor, absorbance |  |  | IC50 | 1210 nM |
